Results from different studies.
Every numbered part comes from another study and shows a few of its results, in no order. Changes are numbered by the printed parent chain.

Block 1
Target: UDP-N-acetylglucosamine--peptide N-acetylglucosaminyltransferase 110 kDa subunit (OGT, Homo sapiens, UniProt O15294)
Effect on: binding
Method: phage display NGS
Form: peptide
Setting: panning round 2
Reference: input library
Quantity: minimum log2 enrichment ratio
Residues (O15294 1-1046): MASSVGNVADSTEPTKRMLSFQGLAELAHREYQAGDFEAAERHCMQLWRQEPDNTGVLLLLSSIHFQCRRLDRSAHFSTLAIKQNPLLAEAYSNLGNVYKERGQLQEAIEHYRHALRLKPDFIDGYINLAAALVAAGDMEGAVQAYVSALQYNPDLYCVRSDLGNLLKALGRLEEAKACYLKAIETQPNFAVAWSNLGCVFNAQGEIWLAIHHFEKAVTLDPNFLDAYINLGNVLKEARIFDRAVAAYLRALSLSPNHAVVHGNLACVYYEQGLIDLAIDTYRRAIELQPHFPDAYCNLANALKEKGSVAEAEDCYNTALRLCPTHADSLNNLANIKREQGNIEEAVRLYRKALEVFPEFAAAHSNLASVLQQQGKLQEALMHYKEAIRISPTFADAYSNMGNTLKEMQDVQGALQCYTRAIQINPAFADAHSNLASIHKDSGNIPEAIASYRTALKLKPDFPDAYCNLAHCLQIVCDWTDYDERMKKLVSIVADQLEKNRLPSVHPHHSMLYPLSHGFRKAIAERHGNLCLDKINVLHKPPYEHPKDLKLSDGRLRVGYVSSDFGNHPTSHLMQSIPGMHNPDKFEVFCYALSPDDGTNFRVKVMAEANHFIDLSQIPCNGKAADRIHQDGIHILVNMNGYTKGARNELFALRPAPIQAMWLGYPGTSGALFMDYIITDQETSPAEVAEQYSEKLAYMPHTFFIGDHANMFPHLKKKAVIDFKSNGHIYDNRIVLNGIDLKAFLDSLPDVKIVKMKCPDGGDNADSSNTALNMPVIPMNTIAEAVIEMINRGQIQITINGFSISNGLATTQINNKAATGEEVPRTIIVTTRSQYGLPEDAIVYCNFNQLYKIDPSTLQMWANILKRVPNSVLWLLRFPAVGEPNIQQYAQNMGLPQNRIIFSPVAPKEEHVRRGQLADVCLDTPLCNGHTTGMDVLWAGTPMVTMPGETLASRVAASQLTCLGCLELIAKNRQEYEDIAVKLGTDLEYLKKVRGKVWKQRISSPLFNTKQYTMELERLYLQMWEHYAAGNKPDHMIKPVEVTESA
Molecule = HQRMDTSNDWKHHH; value = 2.53
Molecule = RDHSWHGHHATLLGT; value = 2.49
Molecule = HWTSHYQHMPVHGDH; value = 2.82
Molecule = STSYVPIYQIDYAHM; value = 3.16
Molecule = WFPHQAHRADIISA; value = 1.44
Molecule = EMEVYDYFPFYQIQV; value = 3.32
Molecule = HTYEQHWTHEIWHLA; value = 2.3
Molecule = HFRMGHNRETTHVG; value = 2.65

Block 2
Target: inorganic phosphate, free oxyanion
Method: microfluidic competitive inhibition
Matrix: in vitro, cell-free expressed
Concentration: not given
Setting: derived from inhibition constants, unchanged parent 615000 nM
Direction: lower = stronger binding
Quantity: phosphate dissociation constant
Starting sequence: PafA, mature enzyme, eGFP fusion (Elizabethkingia meningoseptica, UniProt Q9KJX5); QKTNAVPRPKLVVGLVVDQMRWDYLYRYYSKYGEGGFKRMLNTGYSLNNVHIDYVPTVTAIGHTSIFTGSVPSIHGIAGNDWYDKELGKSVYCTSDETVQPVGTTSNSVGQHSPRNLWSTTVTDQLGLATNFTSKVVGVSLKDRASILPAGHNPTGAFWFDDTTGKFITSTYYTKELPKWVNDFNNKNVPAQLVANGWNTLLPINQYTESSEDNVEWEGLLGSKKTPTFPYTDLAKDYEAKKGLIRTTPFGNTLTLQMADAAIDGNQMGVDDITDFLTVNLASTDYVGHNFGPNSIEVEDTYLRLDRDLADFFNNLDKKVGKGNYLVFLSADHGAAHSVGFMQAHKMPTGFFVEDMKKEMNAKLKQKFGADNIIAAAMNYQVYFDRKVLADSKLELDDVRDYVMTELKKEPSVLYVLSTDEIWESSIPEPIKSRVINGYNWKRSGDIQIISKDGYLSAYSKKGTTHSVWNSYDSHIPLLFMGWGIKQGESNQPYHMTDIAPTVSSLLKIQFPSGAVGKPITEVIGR
Substitution = E410G; value = 782 µM
Substitution = D271G; value = 552 µM
Substitution = D385G; value = 480 µM
Substitution = E297G; value = 235 µM
Substitution = L417G; value = 625 µM
Substitution = V71A; value = 468 µM
Substitution = A150V; value = 645 µM
Substitution = E216G; value = 509 µM

Block 3
Target: CCNB2, cyclin fold, Cln2 fusion (human)
Method: yeast growth competition, sequencing
Matrix: yeast
Setting: weak parent motif
Reference: not given
Direction: higher = stronger binding
Quantity: normalised enrichment score
Starting sequence: viral docking peptide; KKVKRRLFETREL; partner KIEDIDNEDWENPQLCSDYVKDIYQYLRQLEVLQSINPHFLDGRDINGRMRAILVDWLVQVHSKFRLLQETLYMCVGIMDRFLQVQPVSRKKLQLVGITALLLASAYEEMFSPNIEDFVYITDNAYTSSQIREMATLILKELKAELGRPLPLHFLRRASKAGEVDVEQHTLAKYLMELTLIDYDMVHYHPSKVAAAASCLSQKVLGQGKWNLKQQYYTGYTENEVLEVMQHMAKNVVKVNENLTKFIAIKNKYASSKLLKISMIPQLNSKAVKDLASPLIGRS
Substitution = KKVKRRLFETREA [L13A]; value = -0.113
Substitution = KKVKRRAFETREL [L7A]; value = 1.17
Substitution = KKVKRRLFETAEL [R11A]; value = -0.217
Substitution = KAVKRRLFETREL [K2A]; value = 0.642
Substitution = KKVKRRLAETREL [F8A]; value = 0.352
Substitution = KKVKRALFETREL [R6A]; value = 0.692
Substitution = KKVKARAFETREL [R5A L7A]; value = 0.581
Substitution = KKVKKRLFETREL [R5K]; value = 0.719

Single results of other studies
Compound = CN(C)C(=S)SSC(=S)N(C)C; test = dsDNA unwinding, PicoGreen fluorescence; system = annealed dsDNA substrate; conditions = 20 µM; quantity = effect; value = 5.32%

Excerpt of the above (block 2):
Substitution = D271G; value = 552 µM
Substitution = D385G; value = 480 µM
Substitution = E297G; value = 235 µM
